Results pooled from the literature.
“And” joins repeats or separate records; there may be more than shown. ± gives the spread as reported.

| Compound | test | test system | setting | scale | measurement | result |
| --- | --- | --- | --- | --- | --- | --- |
| CC1(C)CCC(c2ccc(Cl)cc2)=C(CN2CCN(c3ccc(C(=O)NS(=O)(=O)c4ccc(N[C@H](CCN5CCOCC5)CSc5ccccc5)c(S(=O)(=O)C(F)(F)F)c4)cc3)CC2)C1 | cell killing, flow cytometry PI exclusion | canine blood CD21+ B cells, dog 31 | 24 h |  | EC50 | 677 nM |
| NCC(=O)Nc1cncc(-c2nn3c(=O)cc(N4CCNCC4)nc3s2)c1 | ADP-induced platelet aggregation, light transmission aggregometry | stable CAD patients on aspirin | subcutaneous, 0.04 mg/kg, 24 h post-dose, added: ADP 20 µM |  | inhibition of platelet aggregation | 0% |
| NC/C(=C\F)COc1cccc(Cn2c(=S)[nH]c(=O)c3[nH]cnc32)c1 |  | mouse, carrageenan air pouch, air pouch exudate | 30 mg/kg, 12 h |  | total white blood cell count | 9e+06 and 1.4e+07 and 2e+07 and 1.8e+07 and 6.8e+07 and 1.7e+07 |
| COc1cc(C(=O)NS(=O)(=O)c2ccccc2C)ccc1Cc1cn(C)c2ccc(NC(=O)OC3CCCC3)cc12 | P-selectin exposure, flow cytometry, refers to: P-selectin | human platelet-rich plasma | 10 µM, added: CRP 5 µg/mL |  | inhibition | 5% |
| O=C(O)c1cccc(-c2noc(-c3ccccc3F)n2)c1 | DCPIP reduction | K562 cell lysate | 40 mM |  | DR activity | 0.0121 OD/min and 0.0133 OD/min and 0.0132 OD/min |
| NC(=O)c1cnc2[nH]ccc2c1N[C@@H]1[C@@H]2CC3C[C@H]1C[C@@](O)(C3)C2 | flow cytometry, refers to: CD4+ effector memory T cells | Japanese healthy subjects, peripheral blood | oral, 10 mg twice daily, day 4 |  | change from baseline | 0.08% |
| O=C1Nc2cc3[nH]nc(-c4ccncc4)c3cc2CN1Cc1ccccc1 | RECIST v1.1 | human, relapsed or refractory advanced solid tumours | intravenous, 0.9 mg/kg, pooled schedules |  | partial response, best response | 0% |
| CCCN(O)N=Nc1ccc(S(=O)(=O)Nc2cc(C)on2)cc1 | carrageenan-induced paw edema | Wistar rat | oral, 100 mg/kg, 0 h (baseline), added: carrageenan 1% subplantar | higher = more edema | paw edema volume | 3.61 ± 0.41 a.u. |
| C=CC(=O)N1CCC([C@@H]2CCNc3c(C(N)=O)c(-c4ccc(Oc5ccccc5)cc4)nn32)CC1 |  | human, relapsed/refractory B-cell malignancies | dose not given |  | time to response | 2.6 to 16.4 months |
| COc1c(C)cnc(Cn2cc(C#CCCOP(=O)(O)O)c3c(Cl)nc(N)nc32)c1C | RECIST | patients, advanced solid tumours | dose not given, prolonged, range |  | stable disease duration | 6 to 19 months |
| CSCCNc1nc(SCCC(F)(F)F)nc2c1ncn2[C@@H]1O[C@H](COP(=O)(O)OP(=O)(O)C(Cl)(Cl)P(=O)(O)O)[C@@H](O)[C@H]1O | platelet aggregation, light transmission aggregometry | human patients, platelet-rich plasma | dose not given, 4 to 6 h, added: TRAP 15 µM |  | inhibition | 14.9 ± 17.8% |
| Oc1ccc(N=Nc2ccc(-c3nc4ccccc4s3)cc2)c(O)c1 | ABTS radical scavenging |  | unit not given | baseline: Trolox | TEAC | > 2 |
| Cc1ccc(N(O)N=Nc2ccc(S(=O)(=O)Nc3onc(C)c3C)cc2)cc1 | carrageenan-induced paw edema | Wistar rat | oral, 100 mg/kg, 0 h (baseline), added: carrageenan 1% subplantar | higher = more edema | paw edema volume | 3.41 ± 0.71 a.u. |
| CC(C)[C@H](C(=O)Nc1ccc(C(=O)NO)cc1)c1ccccc1 | volumetric MRI | human, right meningioma | dose not given, day 224 |  | tumour growth rate | 0 %/year |
| C[C@@H]1CCN(C(=O)CC#N)C[C@@H]1N(C)c1ncnc2[nH]ccc12 |  | mice, DSS-induced colitis | 10 mg/kg, day 5, unit not given | baseline: DSS alone | colon length difference | -11.2 |
| c1ccc(-c2n[nH]cc2-c2ccnc3ccccc23)nc1 | kinase binding, competitor, MIB/MS competition, refers to: ATG1 | Candida albicans cell lysate | 1 µM | baseline: DMSO | log2 fold change | 1.23 |
| NC(=NCCC[C@@H](C(=O)NCc1ccccc1)n1cc(-c2ccc(-c3ccccc3)cc2)nn1)c1ccc([N+](=O)[O-])o1 | STING signalling, inhibitor, ELISA | iBMDM, mouse, culture medium | dose not given, 24 h, added: diABZI 500 nM |  | IFN-beta secretion | inhibited |
| C[C@@H](NC(=O)N1C(=O)[C@H](Cc2ccnc(N)c2)[C@H]1C(=O)O)C1CCCCC1 |  | human, plasma | continuous intravenous infusion, 0.3 mg/kg/h, days 1 to 6 of 5-day infusion, median |  | time to maximum prothrombin time | 121 h |
| Cc1cc(NS(=O)(=O)c2ccc(N=NN(O)c3ccccc3)cc2)no1 | carrageenan-induced paw edema | Wistar rat | oral, 100 mg/kg, 1 h after carrageenan, added: carrageenan 1% subplantar | higher = more edema | paw edema volume | 6.09 ± 0.74 a.u. |

| Compound | test | test system | setting | scale | measurement | result |
| --- | --- | --- | --- | --- | --- | --- |
| N#Cc1ccn2c(-c3ccncc3)c(-c3ccc(F)cc3)nc2c1 | kinase binding, competitor, MIB/MS competition, refers to: TOR1 | Candida albicans cell lysate | 10 µM | baseline: DMSO | log2 fold change | 0.215 |
| OC[C@H]1O[C@@H](c2ccc(Cl)c(Cc3ccc(O[C@H]4CCOC4)cc3)c2)[C@H](O)[C@@H](O)[C@@H]1O | fasting plasma glucose, exposure-response PK/PD model | type 2 diabetes patients | dose not given, final model estimate |  | AUC50 | 703 nM·h |
| O=C(O)CNC(=O)Cc1ccccc1 |  | ventricular cardiomyocytes, C57BL/6 mouse | dose not given, 0.136 s |  | sarcomere length | 1.69 µm |
| C[C@H]1O[C@@H](O[C@H]2CC[C@@]3(C)[C@@H](CC[C@]4(C)[C@@H]3C=C[C@]35OC[C@@]6(CCC(C)(C)C[C@H]63)[C@@H](O)C[C@]54C)[C@]2(C)CO)[C@H](O)[C@@H](O[C@@H]2O[C@H](CO)[C@@H](O)[C@H](O)[C@H]2O)[C@H]1O | qRT-PCR, refers to: SIRT1 | chronic-plus-binge ethanol-fed mice, liver | dose not given, high dose | baseline: control mice | mRNA level | 1.92 fold change and 1.19 fold change and 1.15 fold change |
| Cc1c(C(=O)O)ccc2c3n(nc12)[C@@H]1[C@H](C3)N(CC2CC2)[C@@]2(C(=O)Nc3cc(Cl)ccc32)[C@H]1c1cccc(Cl)c1F | ELISA | human cancer patients, serum | 45 mg |  | time to peak serum GDF15 | 48 h |
| CC(C)NCC(O)c1ccc(O)c(O)c1 (centres unmarked) |  | ventricular cardiomyocytes, C57BL/6 mouse | dose not given, 0.268 s |  | sarcomere length | 1.67 µm |
| CCN(O)N=Nc1ccc(S(=O)(=O)Nc2cc(C)on2)cc1 | carrageenan-induced paw edema | Wistar rat | oral, 100 mg/kg, 2 h after carrageenan, added: carrageenan 1% subplantar | higher = more edema | paw edema volume | 5.46 ± 0.66 a.u. |
| COc1nc(NCc2cn(-c3ccc(NC(=O)c4ccc(F)cc4)cc3)nn2)nc(OC)n1 | cell viability, MTT | normal colonocytes, rat | 72 h |  | IC50 | 14.8 ± 6.18 nM |
| Cc1ccc(N(O)N=Nc2ccc(S(=O)(=O)Nc3cc(C)on3)cc2)cc1 | carrageenan-induced paw edema | Wistar rat | oral, 100 mg/kg, 2 h after carrageenan, added: carrageenan 1% subplantar | higher = more edema | paw edema volume | 5.22 ± 0.36 a.u. |
| C[C@H]1C[C@H]2CSC(N)=N[C@@]2(c2nc(NC(=O)c3ccc(OC(F)F)cn3)cs2)CO1 | refers to: total Aβ | healthy adults, plasma | 12 mg single dose, 4 h post-dose | baseline: placebo | percent change from baseline | -45% |
| CCO[C@H]1CCN(Cc2c(OC)cc(C)c3[nH]ccc23)[C@H](c2ccc(C(=O)O)cc2)C1 |  | PNH patients, blood | oral, 50 mg then 200 mg, week 4, mean percent change | baseline: baseline | PNH RBC clone size | 243% |
| O=C(OC(C(F)(F)F)C(F)(F)F)N1CCN(Cc2cccc(Oc3ccccc3)c2)CC1 | PET blocking study | rhesus monkey, brain THA | 0.01 mg/kg, compound pretreatment, added: [18F]T-401 tracer |  | k3 | 0.003 min⁻¹ |
| COc1ccc(C2=N[C@@H](c3ccc(Cl)cc3)[C@@H](c3ccc(Cl)cc3)N2C(=O)N2CCNC(=O)C2)c(OC(C)C)c1 | histology | Dmd C3333Y mice, triceps | dose not given |  | centrally nucleated fibres | 95% and 74% and 88% and 96% and 86% |
| COc1cc(/C=C/C(=O)N2CCC=CC2=O)cc(OC)c1OC | qRT-PCR, refers to: MT2A | nude mouse MDA-MB-468 xenograft, tumour | 15 mg/kg, 21 days, normalised to beta-actin, unit not given | baseline: vehicle | mRNA level | 0.521 |
| COc1cc2cc(-c3ccc(CC(=O)Nc4cc(C(C)(C)C(F)(F)F)no4)cn3)cnc2cc1OC | RECIST v1.1 | RET-altered advanced solid tumour patients | oral, 150 mg once daily, phase I |  | stable disease as best response | 38% |
| Cc1cc(F)cc2c(CCC(=O)N[C@@H]3C(=O)NC[C@H]3O)c(-c3ccc(F)cc3)[nH]c12 |  | mice, APOL1 G2, single copy | oral, 30 mg/kg twice daily, day 6, added: IFNγ plasmid injection |  | UACR | 1430 µg/mg and 4940 µg/mg and 2000 µg/mg and 2700 µg/mg and 4830 µg/mg |
| CCN(O)N=Nc1ccc(S(=O)(=O)Nc2nccs2)cc1 | carrageenan-induced paw edema | Wistar rat | oral, 100 mg/kg, 0 h (baseline), added: carrageenan 1% subplantar | higher = more edema | paw edema volume | 3.62 ± 0.93 a.u. |
| Cc1c(C)n(Cc2cccc(OC(C)(C)C(=O)O)c2)c2ccc(C(=O)N[C@@H](C)c3ccc(C(C)(C)C)cc3)cc12 | indirect calorimetry | lean mice | dose not given, average over 72 h, end of treatment |  | VCO2 | 71.3 ± 6.12 mL/min/kg |
| OC(CCN1CCCCC1)(c1ccccc1)C1CC2C=CC1C2 (centres unmarked) | resting-state EEG | healthy elderly humans | oral, 2 mg, eyes closed, LS mean |  | gamma power, EEG, Pz-O1 | 0.9 µV² |
